Published values gathered from unrelated publications.
Compare with care: the assays were run in different laboratories.
U2AF2: U2AF2 148-342 (Homo sapiens, UniProt P26368)
UniProt P26368, sequence (whole entry, looked up): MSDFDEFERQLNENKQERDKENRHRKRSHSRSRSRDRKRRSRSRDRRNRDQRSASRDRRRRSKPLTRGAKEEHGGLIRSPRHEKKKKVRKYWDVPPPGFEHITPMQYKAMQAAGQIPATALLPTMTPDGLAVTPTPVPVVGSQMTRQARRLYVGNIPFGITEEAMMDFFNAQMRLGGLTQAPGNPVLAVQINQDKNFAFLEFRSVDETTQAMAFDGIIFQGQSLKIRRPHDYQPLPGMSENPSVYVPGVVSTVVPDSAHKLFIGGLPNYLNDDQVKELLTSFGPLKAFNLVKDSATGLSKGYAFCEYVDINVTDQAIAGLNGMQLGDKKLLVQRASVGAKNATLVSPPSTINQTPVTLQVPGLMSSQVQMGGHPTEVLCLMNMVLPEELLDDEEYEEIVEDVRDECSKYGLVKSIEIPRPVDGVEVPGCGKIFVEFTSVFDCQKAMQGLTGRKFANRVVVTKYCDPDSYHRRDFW
B1: ATG9 864-997 (Saccharomyces cerevisiae, UniProt Q12142); sequence looked up; chain SFLNNKYSWRKQFQPGQKPELFRIGKHALGPGHNISPAIYSTRNPGKNWDNNNNGDDIKNGTNNATAKNDDNNGNNDHEYVLTESFLDSGAFPNHDVIDHNKMLNSNYNGNGILNKGGVLGLVKEYYKKSDVGR
B2: RAB12 GppNHp-bound 36-211 Q101L (Homo sapiens, UniProt Q6IQ22-2); chain PRPADFKLQVIIIGSRGVGKTSLMERFTDDTFCEACKSTVGVDFKIKTVELRGKKIRLQIWDTAGLERFNSITSAYYRSAKGIILVYDITKKETFDDLPKWMKMIDKYASEDAELLLVGNKLDCETDREITRQQGEKFAQQITGMRFCEASAKDNFNVDEIFLKLVDDILKKMPLD
B3: ATG9 2-318 (Saccharomyces cerevisiae, UniProt Q12142); sequence looked up; chain ERDEYQLPNSHGKNTFLSRIFGLQSDEVNPSLNSQEMSNFPLPDIERGSSLLHSTNDSREDVDENDLRVPESDQGTSTEEEDEVDEEQVQAYAPQISDGLDGDHQLNSVTSKENVLETEKSNLERLVEGSTDDSVPKVGQLSSEEEEDNEFINNDGFDDDTPLFQKSKIHEFSSKKSNTIEDGKRPLFFRHILQNNRPQRDTQKLFTSSNAIHHDKDKSANNGPRNINGNQKHGTKYFGSATQPRFTGSPLNNTNRFTKLFPLRKPNLLSNISVLNNTPEDRINTLSVKERALWKWANVENLDIFLQDVYNYYLGNG
B4: prohibitin, human; sequence looked up; chain AAKVFESIGKFGLALAVAGGVVNSALYNVDAGHRAVIFDRFRGVQDIVVGEGTHFLIPWVQKPIIFDCRSRPRNVPVITGSKDLQNVNITLRILFRPVASQLPRIFTSIGEDYDERVLPSITTEILKSVVARFDAGELITQRELVSRQVSDDLTERAATFGLILDDVSLTHLTFGKEFTEAVEAKQVAQQEAERARFVVEKAEQQKKAAIISAEGDSKAAELIANSLATAGDGLIELRKLEAAEDIAYQLSRSRNITYLPAGQSVLLQLPQ
B5: RAD18 267-402 (Homo sapiens, UniProt Q9NS91); sequence looked up; chain IQGNKQQLIKRHQEFVHMYNAQCDALHPKSAAEIVREIENIEKTRMRLEASKLNESVMVFTKDQTEKEIDEIHSKYRKKHKSEFQLLVDQARKGYKKIAGMSQKTVTITKEDESTEKLSSVCMGQEDNMTSVTNHF
B6: ABCG16 1-145 (Arabidopsis thaliana, UniProt Q9M2V7); sequence looked up; chain MSRILVEDDNATPFHSMEIISSSLTLGQLLKNVSDVRKVEVGDETPVHEFFDRDGSSLDGDNDHLMRPVPFVLSFNNLTYNVSVRRKLDFHDLVPWRRTSFSKTKTLLDNISGETRDGEILAVLGASGSGKSTLIDALANRIAKG
B7: human dermokine; sequence looked up; chain GPLQSGEESTGTNIGEALGHGLGDALSEGVGKAIGKEAGGAAGSKVSEALGQGTREAVGTGVRQVPGFGVADALGNRVGEAAHALGNTGHEIGRQAEDVIRHGADAVRGSWQGVPGHNGAWETSGGHGIFGSQGGLGGQGQGNPGGLGTPWVHGYPGNSAGSFGMNPQGAPWGQGGNGGPPNFGTNTQGAVAQPGYGSVRASNQNEGCTNPPPSGSGGGSSNSGGGSGSQSGSSGSGSNGDNNNGSSSGGSSSGSSSGGSSGGSSGGSSGNSGGSRGDSGSESSWGSSTGSSSGNHGGSGGGNGHKPGCEKPGNEARGSGESGIQNSETSPGMFNFDTFWKNFKSKLGFINWDAINKNQVPPPSTRALLYFSRLWEDFKQNTPFLNWKAIIEGADASSLQKRAGRDDQNYNYNQHAYPTAYGGKYSVKTPAKGGVSPSSSASRVQPGLLQWVKFW
B8: INF2 941-1249 (Homo sapiens, UniProt Q27J81-1); FITC label; chain KQQLAEEEARRPRGEDGKPVRKGPGKQEEVCVIDALLADIRKGFQLRKTARGRGDTDGGSKAASMDPPRATEPVATSNPAGDPVGSTRCPASEPGLDATTASESRGWDLVDAVTPGPQPTLEQLEEGGPRPLERRSSWYVDASDVLTTEDPQCPQPLEGAWPVTLGDAQALKPLKFSSNQPPAAGSSRQDAKDPTSLLGVLQAEADSTSEGLEDAVHSRGARPPAAGPGGDEDEDEEDTAPESALDTSLDKSFSEDAVTDSSGSGTLPRARGRASKGTGKRRKKRPSRSQEEVPPDSDDNKTKKLCVIQ
B9: AEBP2 407-478 (Homo sapiens, UniProt Q6ZN18); sequence looked up; chain RHRAICFNLSAHIESLGKGHSVVFHSTVIAKRKEDSGKIKLLLHWMPEDILPDVWVNESERHQLKTKVVHLS
B10: bcsC 21-179 (Escherichia coli, UniProt P37650); chain VEAAPTAQQQLLEQVRLGEATHREDLVQQSLYRLELIDPNNPDVVAARFRSLLRQGDIDGAQKQLDRLSQLAPSSNAYKSSRTTMLLSTPDGRQALQQARLQATTGHAEEAVASYNKLFNGAPPEGDIAVEYWSTVAKIPARRGEAINQLKRINADAPG
B11: CCDC32 101-179 (Mus musculus, UniProt Q8BS39); chain LRTLAQAKKECWDRFLQEKLASEFFVDGLDSDERTLEHFKRWLQPDKVAISTEEVQFLIPPESQAEKPEAGDKPAAAEQ
B12: RB1CC1 1286-1594 (Homo sapiens, UniProt Q8TDY2); chain SLVAELQEKLQEEKAKFLEQLEEQEKRKNEEMQNVRTSLIAEQQTNFNTVLTREKMRKENIINDLSDKLKSTMQQQERDKDLIESLSEDRARLLEEKKKLEEEVSKLRSSSFVPSPYVATAPELYGACAPELPGESDRSAVETADEGRVDSAMETSMMSVQENIHMLSEEKQRIMLLERTLQLKEEENKRLNQRLMSQSMSSVSSRHSEKIAIRDFQVGDLVLIILDERHDNYVLFTVSPTLYFLHSESLPALDLKPGEGASGASRRPWVLGKVMEKEYCQAKKAQNRFKVPLGTKFYRVKAVSWNKKV
B13: CLTA (Bos taurus, UniProt P04973); sequence looked up; chain MAELDPFGVPAGGPALGNGVAGEEDPAAAFLAQQESEIAGIENDEAFAILDGGAPGSQPHGEPPGIPDAVDGVTNGDYYQESNGPTDSYAAISQVDRLQSEPESIRKWREEQTERLEALDANSRKQEAEWKEKAIKELDEWYARQDEQLQKTKANNRVADEAFYKQPFADVIGYVTNINHPCYSLEQAAEEAFVNDIEESSPGTEWERVARLCDFNPKSSKQAKDVSRMRSVLISLKQAPLVH
B14: PZF1 1-429 (Saccharomyces cerevisiae, UniProt P39933); chain MGGEVLNNEGMPLAELKQETIPISRSESSESLNSLTSTRSSSSNRPKTYFCDYDGCDKAFTRPSILTEHQLSVHQGLRAFQCDKCAKSFVKKSHLERHLYTHSDTKPFQCSYCGKGVTTRQQLKRHEVTHTKSFICPEEGCNLRFYKHPQLRAHILSVHLHKLTCPHCNKSFQRPYRLRNHISKHHDPEVENPYQCTFAGCCKEFRIWSQLQSHIKNDHPKLKCPICSKPCVGENGLQMHMIIHDDSLVTKNWKCHICPDMSFSRKHDLLTHYGSIHTEEDIPLELKYKISDIQQLVQDHGVQLGNSKHSNEQDEEKISNRLRKRRKLTENNNVEFLQNEVDLEKRLESGENGLNLLLNTVGRKYRCFYNNCSRTFKTKEKYEKHIDKHKVHELKLKILQEKEENKTLVDQNHKEPFIIQKETQSAGDK
B15: Notch1 221-526 (Mus musculus, UniProt Q01705); sequence looked up; chain PCSPSPCQNGGTCRPTGDTTHECACLPGFAGQNCEENVDDCPGNNCKNGGACVDGVNTYNCRCPPEWTGQYCTEDVDECQLMPNACQNGGTCHNTHGGYNCVCVNGWTGEDCSENIDDCASAACFQGATCHDRVASFYCECPHGRTGLLCHLNDACISNPCNEGSNCDTNPVNGKAICTCPSGYTGPACSQDVDECALGANPCEHAGKCLNTLGSFECQCLQGYTGPRCEIDVNECISNPCQNDATCLDQIGEFQCICMPGYEGVYCEINTDECASSPCLHNGHCMDKINEFQCQCPKGFNGHLCQ
UniProt P60520, sequence (whole entry, looked up): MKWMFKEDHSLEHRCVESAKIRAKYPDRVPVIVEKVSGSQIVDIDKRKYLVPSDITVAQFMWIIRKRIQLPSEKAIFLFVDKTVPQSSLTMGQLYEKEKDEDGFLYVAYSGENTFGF
UniProt Q06671, sequence (whole entry, unmodified, looked up): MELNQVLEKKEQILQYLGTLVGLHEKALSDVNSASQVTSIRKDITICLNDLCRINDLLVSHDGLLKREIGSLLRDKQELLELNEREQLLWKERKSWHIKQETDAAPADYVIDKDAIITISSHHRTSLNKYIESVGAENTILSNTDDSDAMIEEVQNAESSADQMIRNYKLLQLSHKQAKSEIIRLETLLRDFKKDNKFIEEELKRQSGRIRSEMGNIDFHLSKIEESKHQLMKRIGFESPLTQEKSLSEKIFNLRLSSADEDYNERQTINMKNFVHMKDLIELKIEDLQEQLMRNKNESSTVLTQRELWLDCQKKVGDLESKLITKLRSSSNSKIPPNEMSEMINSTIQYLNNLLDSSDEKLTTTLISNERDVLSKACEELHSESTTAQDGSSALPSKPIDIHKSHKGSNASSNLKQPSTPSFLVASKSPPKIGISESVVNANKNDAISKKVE
UniProt P84091, sequence (whole entry, looked up): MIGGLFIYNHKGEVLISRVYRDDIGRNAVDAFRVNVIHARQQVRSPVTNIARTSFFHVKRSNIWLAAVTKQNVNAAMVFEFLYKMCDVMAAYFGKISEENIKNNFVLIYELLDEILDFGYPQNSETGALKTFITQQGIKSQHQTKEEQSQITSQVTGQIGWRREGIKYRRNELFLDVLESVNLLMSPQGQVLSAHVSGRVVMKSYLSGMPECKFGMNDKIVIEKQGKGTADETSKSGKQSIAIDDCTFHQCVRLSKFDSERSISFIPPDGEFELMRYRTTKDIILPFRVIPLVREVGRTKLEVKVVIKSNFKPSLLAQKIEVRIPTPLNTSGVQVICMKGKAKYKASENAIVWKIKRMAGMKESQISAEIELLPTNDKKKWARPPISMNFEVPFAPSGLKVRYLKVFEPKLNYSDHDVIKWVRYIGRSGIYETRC
UniProt Q00535, sequence (whole entry, looked up): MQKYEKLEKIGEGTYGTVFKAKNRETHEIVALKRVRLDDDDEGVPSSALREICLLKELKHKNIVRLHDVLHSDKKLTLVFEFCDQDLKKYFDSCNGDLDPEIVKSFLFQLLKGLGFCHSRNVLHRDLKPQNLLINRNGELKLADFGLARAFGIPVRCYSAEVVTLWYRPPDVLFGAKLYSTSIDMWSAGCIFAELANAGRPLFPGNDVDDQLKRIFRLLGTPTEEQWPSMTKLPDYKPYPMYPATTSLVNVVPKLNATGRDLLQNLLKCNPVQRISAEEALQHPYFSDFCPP
UniProt P34111, sequence (whole entry, looked up): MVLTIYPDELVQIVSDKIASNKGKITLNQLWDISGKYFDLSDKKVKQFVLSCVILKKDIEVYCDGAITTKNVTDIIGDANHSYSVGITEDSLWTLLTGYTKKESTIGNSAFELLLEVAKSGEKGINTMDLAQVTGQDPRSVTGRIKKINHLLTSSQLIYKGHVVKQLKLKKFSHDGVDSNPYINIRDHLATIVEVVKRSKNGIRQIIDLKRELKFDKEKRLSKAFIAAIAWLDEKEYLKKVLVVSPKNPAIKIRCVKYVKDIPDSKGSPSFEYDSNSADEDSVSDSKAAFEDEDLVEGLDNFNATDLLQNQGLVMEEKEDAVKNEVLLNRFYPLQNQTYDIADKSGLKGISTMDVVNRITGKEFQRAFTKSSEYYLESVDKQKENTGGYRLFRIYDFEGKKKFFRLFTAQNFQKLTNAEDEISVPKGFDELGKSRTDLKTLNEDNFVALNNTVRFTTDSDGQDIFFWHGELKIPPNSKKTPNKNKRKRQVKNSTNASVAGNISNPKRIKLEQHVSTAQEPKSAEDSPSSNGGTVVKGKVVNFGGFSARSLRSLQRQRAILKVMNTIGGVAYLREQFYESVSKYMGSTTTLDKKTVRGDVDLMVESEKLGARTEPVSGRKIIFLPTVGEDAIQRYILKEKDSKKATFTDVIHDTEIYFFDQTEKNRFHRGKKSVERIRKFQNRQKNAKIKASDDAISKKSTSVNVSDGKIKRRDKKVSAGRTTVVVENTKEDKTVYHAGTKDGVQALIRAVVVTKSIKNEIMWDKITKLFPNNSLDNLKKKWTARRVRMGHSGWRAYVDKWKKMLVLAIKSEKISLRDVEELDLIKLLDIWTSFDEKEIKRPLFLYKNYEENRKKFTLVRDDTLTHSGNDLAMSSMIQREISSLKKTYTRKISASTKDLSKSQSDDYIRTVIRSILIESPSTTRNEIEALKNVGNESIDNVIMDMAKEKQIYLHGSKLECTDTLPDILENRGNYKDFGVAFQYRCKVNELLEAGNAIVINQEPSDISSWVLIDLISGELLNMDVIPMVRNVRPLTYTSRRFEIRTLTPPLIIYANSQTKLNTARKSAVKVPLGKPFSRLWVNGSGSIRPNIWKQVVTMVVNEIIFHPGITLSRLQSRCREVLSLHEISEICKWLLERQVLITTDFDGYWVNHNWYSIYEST
UniProt Q8NEM0, sequence (whole entry, looked up): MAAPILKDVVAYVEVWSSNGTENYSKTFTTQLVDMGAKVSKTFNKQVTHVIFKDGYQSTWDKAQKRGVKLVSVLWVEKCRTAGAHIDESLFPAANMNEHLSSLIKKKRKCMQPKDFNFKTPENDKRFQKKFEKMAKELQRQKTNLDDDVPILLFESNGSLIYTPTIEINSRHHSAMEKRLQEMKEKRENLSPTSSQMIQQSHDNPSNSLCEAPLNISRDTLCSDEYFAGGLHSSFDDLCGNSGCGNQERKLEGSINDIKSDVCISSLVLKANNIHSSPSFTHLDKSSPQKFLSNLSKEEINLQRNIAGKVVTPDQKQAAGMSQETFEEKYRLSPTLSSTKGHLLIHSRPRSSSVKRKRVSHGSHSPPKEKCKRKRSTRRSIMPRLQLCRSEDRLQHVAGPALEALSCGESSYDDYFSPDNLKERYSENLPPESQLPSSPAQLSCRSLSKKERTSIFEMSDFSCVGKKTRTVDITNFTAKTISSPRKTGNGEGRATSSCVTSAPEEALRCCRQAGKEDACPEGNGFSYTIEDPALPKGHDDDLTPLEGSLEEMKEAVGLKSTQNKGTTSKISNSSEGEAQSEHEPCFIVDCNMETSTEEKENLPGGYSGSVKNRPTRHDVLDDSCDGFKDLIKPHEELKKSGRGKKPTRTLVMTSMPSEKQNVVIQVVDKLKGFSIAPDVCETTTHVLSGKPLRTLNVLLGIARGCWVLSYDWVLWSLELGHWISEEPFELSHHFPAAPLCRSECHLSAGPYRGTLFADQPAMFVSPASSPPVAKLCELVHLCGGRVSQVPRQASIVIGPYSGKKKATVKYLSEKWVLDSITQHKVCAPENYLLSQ
UniProt O49545, sequence (whole entry, looked up): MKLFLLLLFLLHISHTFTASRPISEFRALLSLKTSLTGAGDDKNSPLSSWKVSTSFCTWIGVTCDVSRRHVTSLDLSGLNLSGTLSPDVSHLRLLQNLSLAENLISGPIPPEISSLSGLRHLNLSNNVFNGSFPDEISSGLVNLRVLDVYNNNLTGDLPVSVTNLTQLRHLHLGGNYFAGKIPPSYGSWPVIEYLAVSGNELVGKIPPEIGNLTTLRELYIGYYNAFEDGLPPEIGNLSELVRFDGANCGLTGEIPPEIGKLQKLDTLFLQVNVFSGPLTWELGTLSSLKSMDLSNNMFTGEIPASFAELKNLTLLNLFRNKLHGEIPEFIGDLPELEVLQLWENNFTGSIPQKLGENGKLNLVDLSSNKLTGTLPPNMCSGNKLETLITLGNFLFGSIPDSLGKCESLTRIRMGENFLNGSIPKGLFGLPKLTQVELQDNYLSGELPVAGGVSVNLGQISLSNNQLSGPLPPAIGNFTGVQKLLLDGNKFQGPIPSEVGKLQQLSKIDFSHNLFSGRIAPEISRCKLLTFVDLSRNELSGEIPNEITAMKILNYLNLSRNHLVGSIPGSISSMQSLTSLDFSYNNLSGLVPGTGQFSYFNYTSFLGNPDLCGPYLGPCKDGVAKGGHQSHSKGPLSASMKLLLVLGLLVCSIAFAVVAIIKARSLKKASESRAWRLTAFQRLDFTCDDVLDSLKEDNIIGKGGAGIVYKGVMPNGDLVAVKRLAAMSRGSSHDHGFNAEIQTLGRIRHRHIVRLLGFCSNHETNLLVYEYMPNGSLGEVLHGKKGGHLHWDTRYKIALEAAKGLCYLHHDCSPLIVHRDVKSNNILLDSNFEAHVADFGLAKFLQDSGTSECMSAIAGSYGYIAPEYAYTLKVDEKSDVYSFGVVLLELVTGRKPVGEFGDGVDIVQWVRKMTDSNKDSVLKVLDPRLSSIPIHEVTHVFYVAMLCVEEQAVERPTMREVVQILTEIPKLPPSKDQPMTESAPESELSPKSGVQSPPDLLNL
UniProt O95619, sequence (whole entry, looked up): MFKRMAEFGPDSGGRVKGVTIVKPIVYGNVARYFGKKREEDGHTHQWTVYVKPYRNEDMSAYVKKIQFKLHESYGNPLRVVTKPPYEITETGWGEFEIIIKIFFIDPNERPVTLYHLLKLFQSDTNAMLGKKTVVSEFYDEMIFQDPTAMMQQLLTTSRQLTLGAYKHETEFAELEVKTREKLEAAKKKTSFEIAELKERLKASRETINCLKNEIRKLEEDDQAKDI

Molecule	tested on	test	test system	setting	how to read	measurement	result
GVGGSWGVFSSGESPAIVPDK (TET3 peptide 1451-1471 (Homo sapiens, UniProt O43151); sequence looked up)	KMT2D 1503-1562 (Homo sapiens, UniProt O14686)	NMR titration	peptide			binding	binds
GCAGUUAUU (ssRNA)	U2AF2	sequencing of bound RNA	RNA	motif only		Kd	2.36 µM
B1 (ATG9 864-997)	ATG23 A34E (Saccharomyces cerevisiae, UniProt Q06671)	pull-down		15 minutes, 4 °C		binding	binds
B2	LRRK2 (Homo sapiens, UniProt Q5S007)	cryo-EM		added: GppNHp		binding	binds
B3 (ATG9 2-318)	ATG23 (Saccharomyces cerevisiae, UniProt Q06671)	pull-down				binding	binds
B4 (prohibitin, human)	CYB5R4 knockout human cells	PP4 interaction, 3xFLAG-PP4C IP-MS		concentration not given	baseline: CYB5R4 KO over parental	log2 fold change	-0.34
KEAFWDRCLSVINLMSSKMLQVNA	Cyclin-dependent kinase 5, with p25 (CDK5, Homo sapiens, UniProt Q00535)	phosphotransferase activity, radiometric	peptide	concentration not given, 10% DMSO, added: histone substrate	baseline: p5-WT peptide	activity change	39%
B5 (RAD18 267-402)	MAGEA4 101-312 R297A (Homo sapiens, UniProt P43358)	TR-FRET				binding	binds
B6 (ABCG16 1-145)	BAM1 694-963 (Arabidopsis thaliana, UniProt O49545)	pull-down				binding	binds
B7 (human dermokine)	PP6C (human)	co-immunoprecipitation, IP-MS	CYB5R4 knockout cells	concentration not given	baseline: CYB5R4 knockout over parental	log2 fold change	-0.12
B8 (INF2 941-1249)	INF2 31-420 (Homo sapiens, UniProt Q27J81)	FP				binding	binds
B9 (AEBP2 407-478)	SUZ12/RBBP4 SUZ12 76-545 (Homo sapiens)	pull-down				binding	binds
SVP (Arabidopsis thaliana, UniProt Q9FVC1)	protein (Arabidopsis thaliana, UniProt O65555)	pull-down				binding	binds
HEEWEMVPRHS (STBD1 200-210 (Homo sapiens, UniProt O95210))	Gamma-aminobutyric acid receptor-associated protein-like 2 (Homo sapiens, UniProt P60520)	SEC				binding	binds
RAD1 (Homo sapiens, UniProt O60671)	LIG1 233-534 (Homo sapiens, UniProt P18858)	pull-down		1 hr, 4 °C		binding	binds
B10 (bcsC 21-179)	bcsB 56-779 (Escherichia coli, UniProt P37652)	cryo-EM				binding	binds
MSVLTPLLLRGLTGSARRLPVPRAK (COX8A presequence peptide, 1-25)	TOMM20 cytosolic domain, 62-127, N-terminal cysteine ATTO550 label (Homo sapiens, UniProt Q15388)	fluorescence polarisation	peptide			binding	binds
ACUCUUUAA (ssRNA)	U2AF2	sequencing of bound RNA	RNA	motif only		Kd	2.44 µM
KKATQASQEY (H2AX residues 134-143 (Homo sapiens); pS139, fluorescein label)	MCPH1 BRCT 639-835 (Homo sapiens, UniProt Q8NEM0)	fluorescence polarisation	peptide			binding	binds
B11 (CCDC32 101-179)	Ap2m1 122-435 (Mus musculus, UniProt P84091)	pull-down				binding	binds
B12 (RB1CC1 1286-1594)	CALCOCO2 1-316 (Homo sapiens, UniProt Q13137)	SEC				binding	binds
KESALRKQDLLLQFDPLLR (TACC3 to 568 550-568 S558D/Y560L/K562Q (Homo sapiens, UniProt Q9Y6A5); sequence looked up)	CLTC 358-574 (Homo sapiens, UniProt Q00610)	peptide array	peptide			binding	binds
B13 (CLTA)	CLTC (Bos taurus, UniProt P49951)	ELISA				binding	binds
B14 (PZF1 1-429)	TFC3 1-1160 (Saccharomyces cerevisiae, UniProt P34111)	cryo-EM				binding	binds
B15 (Notch1 221-526)	DLL4 27-400 (Homo sapiens, UniProt Q9NR61)	SPR				binding	binds
ARTKQTARKST (histone H3 2-12 (UniProt P68431); acetylated K9; sequence looked up)	YEATS4 19-159 (Homo sapiens, UniProt O95619)	X-ray crystallography	peptide			binding	binds

A few entries again:
Molecule	tested on	test	test system	setting	how to read	measurement	result
GCAGUUAUU (ssRNA)	U2AF2	sequencing of bound RNA	RNA	motif only		Kd	2.36 µM
KKATQASQEY (H2AX residues 134-143 (Homo sapiens); pS139, fluorescein label)	MCPH1 BRCT 639-835 (Homo sapiens, UniProt Q8NEM0)	fluorescence polarisation	peptide			binding	binds
